Published values collected from several papers.

SMILES | system | conditions | endpoint | value
Nc1nc(-n2nnc3c2CCC2C(CO)C2CC3)nc2c1ncn2C1OC(CO)C(O)C1O (mixture of isomers) | – | – | molar absorption coefficient | 19100 M⁻¹ cm⁻¹
CCn1cc(/C=C/c2sc3ccccc3[n+]2CC)c2ccccc21 | PBS | – | molar absorptivity | 46900 M⁻¹ cm⁻¹
Cc1ccc(C(C)C)cc1.[C-]#[O+].[C-]#[O+].[C-]#[O+].[Cl-].[Cl-].[Cl-].[Re+].[Ru+2].c1cnc(-c2ncccn2)nc1 | 10% aqueous DMSO | – | molar conductivity | 190 S m²/mol
CC1=[N+]2C(=C(CCl)c3ccc(C)n3[B-]2(F)F)C=C1 | DMSO | – | molar absorption coefficient | 48200 M⁻¹ cm⁻¹
Cc1ccc(C(C)C)cc1.[Cl-].[Cl][Ru+].[Ru+].c1ccc(-c2cn(CCCCOc3ccccc3-c3nc4ccccc4s3)nn2)nc1 | 10% aqueous DMSO | – | molar conductance | 30 S cm²/mol
CCCc1c(OC)c(=O)c2c(O)c(/C=C/c3ccccc3)c(OC)c3c4c(OC)c(/C=C/c5ccccc5)c(O)c5c(=O)c(OC)c(CCC)c(c1c23)c54 | – | at 670 nm | molar absorption coefficient | 5180 M⁻¹ cm⁻¹
Nc1ncnc2c1nc(-n1nnc3c1CCC1C(CO)C1CC3)n2C1OC(CO)C(O)C1O (mixture of isomers) | – | – | molar absorption coefficient | 21100 M⁻¹ cm⁻¹
COc1cc(OC)cc(C2=C3C(C)=C(I)C(C)=[N+]3[B-](F)(F)n3c(/C=C/c4c[nH]c5ccccc45)c(I)c(C)c32)c1 | DMSO | λmax 636 nm | molar extinction coefficient | ~29000 M⁻¹ cm⁻¹
N[C@@H](CC(=O)O)C(=O)OC(C(=O)O)c1ccc(Br)cc1[N+](=O)[O-] (mixture of isomers) | – | wavelength 355 nm | molar extinction coefficient | 520 M⁻¹ cm⁻¹
CCCc1c(OC)c(=O)c2c(O)cc(OC)c3c4c(OC)cc(O)c5c(=O)c(OC)c(CCC)c(c1c23)c54 | – | at 670 nm | molar absorption coefficient | 480 M⁻¹ cm⁻¹
NCCC(=O)N1Cc2ccccc2-c2c(nnn2-c2nc(N)c3ncn(C4OC(CO)C(O)C4O)c3n2)-c2ccccc21 (mixture of isomers) | – | – | molar absorption coefficient | 16400 M⁻¹ cm⁻¹
COc1c(C[C@H](C)O)c2c3c(C[C@H](C)O)c(OC)c(=O)c4c(O)cc(OC)c(c5c(OC)cc(O)c(c1=O)c52)c43 | – | at 670 nm | molar absorption coefficient | 120 M⁻¹ cm⁻¹
CCn1cc(/C=C/c2ccc3ccccc3[n+]2CC)c2ccccc21 | MeOH | – | molar absorptivity | 28800 M⁻¹ cm⁻¹
NCCC(=O)N1Cc2ccccc2-c2c(nnn2-c2nc3c(N)ncnc3n2C2OC(CO)C(O)C2O)-c2ccccc21 (mixture of isomers) | – | – | molar absorption coefficient | 16000 M⁻¹ cm⁻¹
CCCc1c(OC)c(=O)c2c(O)c(Br)c(OC)c3c4c(OC)c(Br)c(O)c5c(=O)c(OC)c(CCC)c(c1c23)c54 | – | at 670 nm | molar absorption coefficient | 1200 M⁻¹ cm⁻¹

For quick reference, copied from above:
SMILES | system | conditions | endpoint | value
CCCc1c(OC)c(=O)c2c(O)cc(OC)c3c4c(OC)cc(O)c5c(=O)c(OC)c(CCC)c(c1c23)c54 | – | at 670 nm | molar absorption coefficient | 480 M⁻¹ cm⁻¹
NCCC(=O)N1Cc2ccccc2-c2c(nnn2-c2nc(N)c3ncn(C4OC(CO)C(O)C4O)c3n2)-c2ccccc21 (mixture of isomers) | – | – | molar absorption coefficient | 16400 M⁻¹ cm⁻¹
